Results of several laboratories.
± marks the error that the study gave.

Structure (SMILES)	assay	test system	conditions	scale	endpoint	value
CC(C)C[C@@H]1NC(=O)[C@H](CS)NC(=O)[C@H](CCCCN)NC(=O)[C@H](CC(=O)O)N(C(=O)[C@@H](N)Cc2c[nH]c3ccccc23)CCCNC(=O)NCCCCN([C@@H](C)C(N)=O)C1=O		DBA/1 mouse collagen-induced arthritis, synovium	intraperitoneal, dose not given	baseline: PBS	osteoclast number	no effect
CC12CC(O)C3CC1(OC1OC(CO)C(O)C(O)C1O)C3(COC(=O)c1ccccc1)C(=O)O2 (stereo not drawn)		pseudo-germ-free mice, reserpine model	14 mg/kg, 7 days		body temperature	34.5 ± 0.58 °C
O=C(O)C1OC(Oc2cccc(-c3nc(N4CCOCC4)c4oc5ncccc5c4n3)c2)C(O)C(O)C1O (stereo not drawn)	glucuronide formation	minipig liver microsomes			Vmax	373 ± 10.8 pmol/min/mg
COc1ccc2c(c1)c(CC(=O)OCC(=O)OC(C)(C)C)c(C)n2C(=O)c1ccc(Cl)cc1	hot plate test	BALB/c mice	50 mg/kg, 60 min		latency of nociceptive response	15.8 ± 0.66 s
CC(=O)C1=C(C)NC(=O)NC1c1ccc(C)cc1 (stereo not drawn)	FRAP			baseline: gallic acid	antioxidant potency ratio	~2.9 fold
CC(=O)N1CCC[C@H](O)[C@H]1CC(=O)Cn1cnc2cc(Br)c(Cl)cc2c1=O (relative stereo)	luciferase translation	rabbit reticulocyte lysate	concentration not given		translation	inactive
Cc1nc(C)c(C=[N+]([O-])C(C)(C)C)nc1C	Western blot, measured: Nrf2	mouse, MPTP model, substantia nigra nuclei	10 mg/kg		protein level increase	36.5%
COc1cc(C(=O)OCCCN2CCCN(CCCOC(=O)c3cc(OC)c(OC)c(OCc4ccc([N+](=O)[O-])cc4)c3)CC2)cc(OC)c1OC	von Frey test	mouse, STZ diabetic neuropathy	iv, 30 mg/kg, after third injection		duration of PWT increase	24 h
CN(C)S(=O)(=O)c1cc(C(=O)O)ccc1NCCCCCCCC(F)(F)F		hippocampal neurons 3 DIV, mouse	10 µM, together with: GABA 100 µM	baseline: DMSO	Ca2+ influx	decreased
CCOC(=O)c1cc2c(N)c(C(=O)OC)sc2nc1C		Sprague-Dawley rats	subcutaneous, dose not given	baseline: vehicle	urine non-urea solute concentration	no effect
CN(C)C(=O)c1cncc(N2Cc3cnn(Cc4ccc(F)cc4)c3C2)n1	EAE clinical score	mouse EAE model	ip, 10 mg/kg daily from day 11, 264 h, unit not given	baseline: vehicle	effect size d	-2.13
N=C(N)NCCC[C@@H]1NC(=O)[C@H](CCCNC(=N)N)NC(=O)[C@H](CCCNC(=N)N)NC(=O)[C@H](Cc2ccc3ccccc3c2)NC(=O)[C@H](Cc2c[nH]c3ccccc23)NC(=O)[C@H](Cc2ccc3ccccc3c2)NC(=O)[C@H](CCCNC(=N)N)NC1=O		bacterial mimic liposomes	5 µg/mL, 40 min		calcein leakage	~20%
CC(C)(C)C(=O)NNC(=O)/C=C\n1cnc(-c2cc(C(F)(F)F)cc(C(F)(F)F)c2)n1	measured: NeuN, NRF2	C57BL/6J mouse EAE, spinal cord	dose not given	baseline: vehicle	NRF2 nuclear neurons	increased
CCn1nc(Cl)c2c1-c1cnc(N)c(c1)O[C@H](C)c1cc(F)ccc1-c1nn(C)cc1C2		human	oral, 50 mg once daily, week 6		change in target lesion size	-31%
COc1c2c(cc3oc(C)cc(=O)c13)O[C@H](C(C)(C)O[C@@H]1O[C@H](CO)[C@@H](O)[C@H](O)[C@H]1O)C2	analgesic effect	mouse	oral, 2 mg/kg, 2 h		hot plate latency	10.4 ± 1.75 s
O=C(O)c1ccc(/C=C2\SC(=S)N(Cc3cccc(C(F)(F)F)c3)C2=O)cc1		wild-type mouse, high-fat diet, blood	2.5 mg/kg once daily, 6 weeks		blood insulin level	decreased
CC(C)(O)c1ccc(N2Cc3c(ccnc3-c3ccc(F)cc3OCC(F)(F)F)C2=O)cc1	measured: glucosylceramide	mouse, cerebral cortex	6 h	significant decrease	minimal effective dose	10 mg/kg
COC(=O)[C@H](CSSC(C)(C)[C@H](NC(=O)[C@H](CCC(=O)NC[C@H](O)[C@@H](O)[C@H](O)[C@H](O)CO)NC(=O)[C@H](CCC(=O)O)NC(=O)[C@H](CCC(=O)NC[C@H](O)[C@@H](O)[C@H](O)[C@H](O)CO)NC(=O)[C@H](CCC(=O)O)NC(=O)[C@H](CCC(=O)NC[C@H](O)[C@@H](O)[C@H](O)[C@H](O)CO)NC(=O)CC[C@H](NC(=O)c1ccc(NCc2cnc3nc(N)[nH]c(=O)c3n2)cc1)C(=O)O)C(=O)O)NC(=O)CC[C@H](NC(=O)c1ccc(NCc2cnc3nc(N)nc(N)c3n2)cc1)C(=O)O		Lewis rat, adjuvant-induced arthritis	500 nmol/kg twice weekly × 2	direction not given	summed histological score decrease	~85%
Cc1cc(O)c(C=O)c2c1C(=O)Oc1c(CO)c(O)c3c(c1O2)C(O)OC3=O (stereo not drawn)		rat, male, streptozotocin-induced diabetes	5 mg/kg, 0 weeks		fasting plasma glucose	332 ± 5.43 mg/dL
Cc1[nH]nc2c1N=C(c1ccccc1Cl)c1cnc(N3CCOCC3)cc1N2	immunohistochemistry	HCC1806 xenograft, nude mice, tumour	dose not given		CD34+ vascular cells	decreased

Structure (SMILES)	assay	test system	conditions	scale	endpoint	value
COc1ccc(-c2nnc(COc3cc(-c4nc5ccccc5s4)ccc3OC)o2)cc1OC	hind limb tonic extension	albino mouse, MES-induced seizure	ip, 4.0 h		minimal effective dose	30 mg/kg
C[C@@H](O)[C@@H]1NC(=O)[C@H](CCCCN)NC(=O)[C@@H](Cc2ccc(NC(N)=O)cc2)NC(=O)[C@H](Cc2ccc(NC(=O)[C@@H]3CC(=O)NC(=O)N3)cc2)NC(=O)[C@H](NC(=O)[C@H](Cc2ccc(Cl)cc2)NC(=O)CN2CCN(CC(=O)O)CCN(CC(=O)O)CCN(CC(=O)O)CC2)CSSC[C@@H](C(=O)N[C@H](Cc2ccc(O)cc2)C(N)=O)NC1=O [gallium-68 labelled]	PET/CT	human neuroendocrine tumour patients, bone lesions	60 min		SUVmean	4 ± 2
CCCCCCCCCCCCCCCC(=O)NCCCC[C@H](N)C(=O)N[C@@H](CC(=O)O)C(=O)N[C@H](C(=O)N[C@@H](Cc1c[nH]cn1)C(=O)N[C@@H](Cc1ccccc1)C(=O)N[C@@H](CCCNC(=N)N)C(=O)N[C@H](C(=O)N[C@@H](Cc1ccccc1)C(=O)N[C@@H](CCCNC(=N)N)C(=O)N[C@@H](CO)C(=O)N[C@@H](Cc1c[nH]cn1)C(=O)N[C@@H](CO)C(=O)N[C@@H](CC(=O)O)C(=O)N[C@@H](Cc1ccc(O)cc1)C(=O)N[C@@H](CCCNC(=N)N)C(=O)N[C@@H](CCCNC(=N)N)C(=O)N[C@H](C(=O)O)[C@@H](C)CC)[C@@H](C)O)[C@@H](C)O		C57BL/6J mouse, MCD diet	intraperitoneal, 0.6 nmol/g, 3 weeks, 3 times weekly		serum total cholesterol	62.7 ± 11.1 mg/dL
CCCOC(=O)Cc1c(C)n(C(=O)c2ccc(Cl)cc2)c2ccc(OC)cc12	hot plate test	BALB/c mice	75 mg/kg, 30 min		latency of nociceptive response	17.2 ± 1.71 s
C=C(c1cc(F)c(C(=O)O)c(F)c1)c1cc2c(cc1C)C(C)(C)CCC2(C)C	RNA sequencing, measured: Angptl4 mRNA	rat, brain	dose not given, 24 h, single dose	baseline: vehicle	log2 fold change	0.28
N#Cc1cnc2cc(OCC3CCNCC3)c(F)cc2c1Nc1cc(F)c(OCc2cccc(Cl)n2)cc1Cl		C57BL/6J mice, partial hepatectomy	5, 15 and 50 mg/kg twice daily, 72 h after hepatectomy, 70% partial hepatectomy	baseline: vehicle	liver to body weight ratio	increased
NC(=S)N/N=C1\c2ccccc2-c2nc3cc(F)ccc3nc21		mouse, STZ-induced diabetes	oral, 25 mg/kg, day 3		blood glucose	352 ± 16.6 mg/dL
CNc1oc(-c2cccc3ccccc23)nc1C#N	insulin tolerance test	C57BL/6J mice, low-dose STZ diabetes	dose not given, day 18		insulin sensitivity	no effect
CCCCC1NC(=O)c2ccccc21 (racemic)		rat cerebral ischaemia-reperfusion, cerebral cortex	50 mg/kg, 24 h after reperfusion		NO synthase activity	0.72 U/mg
CC[C@H]1[C@@H](O)[C@@H]2[C@H](CC[C@]3(C)[C@@H]([C@H](C)CCOS(=O)(=O)[O-])CC[C@@H]23)[C@@]2(C)CC[C@@H](O)C[C@@H]12.[Na+]	histology	ob/ob NASH mouse model, liver	oral, 10 mg/kg once daily, 8 weeks, scale 0 to 3	direction not given	inflammation score	1 ± 0.1
C=C(c1ncc(C(=O)O)cn1)c1cc2c(cc1C)C(C)(C)CCC2(C)C	RNA sequencing, measured: Cav1 mRNA	rat, brain	dose not given, 24 h, single dose	baseline: vehicle	log2 fold change	0.75
COc1ccc(C2CC(c3ccc(C)cc3)=Nc3ccccc3S2)cc1 (stereo not drawn)		Wistar rat, STZ-induced diabetes, serum	10 mg/kg, 28 days		LDL cholesterol	123 mg/dL
COC(=O)C1OC(Oc2c(-c3ccccc3)oc3cc(O)c(O)c(O)c3c2=O)C(O)C(O)C1O (stereo not drawn)	ELISA, measured: TNF-α	Balb/c mouse, serum	oral, 5 mg/kg, together with: LPS		serum concentration	183 pg/mL
COc1ccc(C2CC(c3ccc(C)cc3)=Nc3ccccc3S2)cc1OC (stereo not drawn)		Wistar rat, STZ-induced diabetes, serum	20 mg/kg, 28 days		LDL cholesterol	104 mg/dL
CC(C)c1cnc(-c2cc(Cl)ccc2F)cc1Nc1ccncc1C(=O)NC(CO)CO		human	375 mg		duration of response	31 months
CC1(C)C(=CC=C2CCCC(C=CC3=[N+](CCCCS(=O)(=O)[O-])c4ccc(S(=O)(=O)O)cc4C3(C)C)=C2Oc2ccc(S(=O)(=O)O)cc2)N(CCCCCC(=O)NCCCC[C@H](NC(=O)[C@@H](CCC(=O)O)NC(=O)[C@@H](CCC(=O)O)NC(=O)[C@@H](CCC(=O)O)NC(=O)CCCCCNC(=O)C2CCC(CNC(=O)CC[C@H](NC(=O)N[C@@H](CCC(=O)O)C(=O)O)C(=O)O)CC2)C(N)=O)c2ccc(S(=O)(=O)O)cc21 (stereo partly drawn)	fluorescence molecular tomography	mouse, PC3pip tumour xenograft, PC3pip tumour	iv, 1 nmol, 4 h		probe amount in tumour	71.2 ± 14.4 pmol
COC(=O)N1c2ccc3c(nc(Cc4ccccc4)n3[C@@H]3CCC[C@@H](C(=O)O)C3)c2CC[C@@H]1C		mice, breast cancer PDX	oral, 50 mg/kg, 45 days, TNBC, TGI above 60%		responding models	38%
CC(=O)[O-].O.O.O.O.[Co+2].[O-]c1ccc(Br)cc1C=NCCN1CCOCC1	superoxide scavenging		240 µM		inhibition	65.3%
CCCCCCCCCn1cc(C(N)(CO)CO)nn1		APP/PS1 mouse, plasma, cortex, hippocampus	oral, up to 10 mg/kg	baseline: PBS	acid sphingomyelinase activity	decreased
